Published values pooled from the literature.
Parts stem from different laboratories: compare values within a part only. “And” joins repeats or separate records; there may be more than shown. Substitutions count along the parent as printed.

Series 1 — read-out: enzyme activity; action: inhibitor; concentration: 0.5 µM; baseline: control; endpoint: remaining activity
Target: Mitogen-activated protein kinase 12 (MAPK12, Homo sapiens, UniProt P53778)
Construct (P53778 1-367): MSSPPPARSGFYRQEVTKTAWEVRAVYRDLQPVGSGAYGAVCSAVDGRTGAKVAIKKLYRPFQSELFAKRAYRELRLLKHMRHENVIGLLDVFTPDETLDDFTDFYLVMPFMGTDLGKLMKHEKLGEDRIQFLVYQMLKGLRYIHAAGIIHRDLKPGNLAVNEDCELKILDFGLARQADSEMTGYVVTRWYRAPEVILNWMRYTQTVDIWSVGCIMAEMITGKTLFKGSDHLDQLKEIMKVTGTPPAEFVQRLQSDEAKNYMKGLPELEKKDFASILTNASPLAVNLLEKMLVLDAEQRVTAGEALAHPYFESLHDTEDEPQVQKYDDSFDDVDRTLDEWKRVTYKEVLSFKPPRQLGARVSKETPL
NCCNc1ncc(C(N)=O)c(Nc2cccc(C(F)(F)F)c2)n1: 98.2%
O=c1c2ccccc2[nH]c(=S)n1CCN1CCC(=C(c2ccc(F)cc2)c2ccc(F)cc2)CC1: 99%
O=C(O)c1ccc2c3c1cccc3c(=O)n1c3ccccc3nc21: 103%
Nc1[nH]nc2nc3ccccc3nc12: 100%
Cc1ccc(Nc2nccc(N(C)c3ccc4c(C)n(C)nc4c3)n2)cc1S(N)(=O)=O: 93.7%
CO[C@H]1C[C@@H]2CC[C@@H](C)[C@@](O)(O2)C(=O)C(=O)N2CCCC[C@H]2C(=O)O[C@H]([C@H](C)C[C@@H]2CC[C@@H](O)[C@H](OC)C2)CC(=O)[C@H](C)/C=C(\C)[C@@H](O)[C@@H](OC)C(=O)[C@H](C)C[C@H](C)/C=C/C=C/C=C/1C: 107%
COc1ccc(C(=O)Nc2sc3c(c2C(N)=O)CCCC3)cc1OC: 96.5%
COc1cc2ncnc(Nc3ccc(Oc4ccccc4)cc3)c2cc1OC: 105%
Cc1cccc(-c2[nH]c(C(C)(C)C)nc2-c2ccc3c(c2)OCO3)n1: 95.7%
O=C(Nc1cccc(Nc2cc(Nc3cccc(C(F)(F)F)c3)ncn2)c1)C1CC1: 89.2%
O=C1NC(=O)C(c2cn(CCCn3ccnc3)c3ccccc23)=C1Nc1ccccc1: 102%
O=S(=O)(c1cccc2cnccc12)N1CCCNCC1: 99.3%
COc1ccc(OC)c2c(=S)c3ccccc3[nH]c12: 98.1%
Cn1sc(=O)n(Cc2ccccc2)c1=O: 102%

Series 2 — read-out: ligand displacement; concentration: 10 µM; endpoint: inhibition
Target: 5-hydroxytryptamine receptor 7 (HTR7, Homo sapiens, UniProt P34969)
Sequence of UniProt P34969 (whole entry, looked up): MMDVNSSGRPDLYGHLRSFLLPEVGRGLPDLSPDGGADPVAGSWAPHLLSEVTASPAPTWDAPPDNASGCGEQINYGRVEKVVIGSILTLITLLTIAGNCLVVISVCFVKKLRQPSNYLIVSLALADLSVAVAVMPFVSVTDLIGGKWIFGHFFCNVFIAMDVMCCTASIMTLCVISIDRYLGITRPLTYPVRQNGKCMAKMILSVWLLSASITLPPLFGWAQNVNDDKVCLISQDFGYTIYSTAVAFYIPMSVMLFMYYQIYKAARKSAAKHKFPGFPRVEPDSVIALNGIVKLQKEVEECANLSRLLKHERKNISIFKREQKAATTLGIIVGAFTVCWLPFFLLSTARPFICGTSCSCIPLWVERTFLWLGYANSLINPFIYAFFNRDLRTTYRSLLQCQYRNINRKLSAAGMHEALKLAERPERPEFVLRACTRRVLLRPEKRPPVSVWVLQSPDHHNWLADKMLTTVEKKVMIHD
CC[C@H](CC(=O)O)n1c(=O)c2ncccc2n(Cc2cn(C)c3cc(C)cc(C)c23)c1=O: 27.2%
C[C@@H]1CN(c2cc(-c3n[nH]c4ccc(OC5(C)CC5)cc34)ncn2)C[C@H](C)O1: -12.9%
CCOc1ccc(S(=O)(=O)Nc2ccc(Cl)cc2C#Cc2cnc(C(=O)O)cc2OC)c2ncccc12: 2.02%
Nc1cnc(N2CCc3cc(S(=O)(=O)Nc4c(F)cc(Cl)cc4F)cc(N4CCCC4=O)c32)nc1: 0.94%
N#CC1(c2ccccn2)CCN(Cc2cc(C(=O)N3CCCC3)c(=O)n3ccccc23)CC1: -22.8%
Cc1ccccc1Oc1cc(-n2c(=O)cc(C(F)(F)F)[nH]c2=O)c2ccccc2c1Cl: 13.1%

Series 3 — Variant: F66G; method: DHFR PCA, deep sequencing; matrix: yeast; baseline: wild-type fitted maximum; reading: higher = stronger binding; endpoint: relative binding score
Target: ABI1, truncated, D143A, DHFR fusion (Arabidopsis thaliana)
Notes: methotrexate growth selection, single substitutions
Parent: PYL1, truncated, DHFR fusion (Arabidopsis thaliana); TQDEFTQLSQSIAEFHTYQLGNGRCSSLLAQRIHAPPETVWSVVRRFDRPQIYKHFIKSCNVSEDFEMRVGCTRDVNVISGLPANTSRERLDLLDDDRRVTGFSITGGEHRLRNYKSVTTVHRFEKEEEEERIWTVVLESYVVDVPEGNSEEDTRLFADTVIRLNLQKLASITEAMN
with: (+)-ABA 0.032 µM: 11.7%
with: (+)-ABA 0.0091 µM: 13%
with: (+)-ABA 200 µM: 102%
with: (+)-ABA 0 µM: 14.6%
with: (+)-ABA 2500 µM: 101%
with: (+)-ABA 710 µM: 101%

Series 4 — method: RNA Bind-n-Seq; molecule type: RNA; matrix: in vitro; concentration: 20 nM; notes: 6-mer, flanks averaged, single round; with: 150 mM LiCl; baseline: input library; reading: higher = stronger binding; endpoint: 6-mer enrichment (R)
Target: TAR DNA-binding protein 43, full length, His tag (TARDBP, Homo sapiens, UniProt Q13148, residues 1-414)
AUGCGG: 1.04
GUACUU: 0.895
UGUCCG: 0.962
AGUAUU: 0.952
UGCCCA: 1
UAUGUC: 1.03
ACUACC: 0.862
CCUGAA: 0.868

Single results of other studies
CN(N=O)C(=O)N[C@@H]1[C@@H](O)[C@H](O)[C@@H](CO)O[C@@H]1O
blood glucose (mice, STZ diabetic neuropathy; dose not given, 7 days after STZ): 528 mg/dL and 378 mg/dL and 469 mg/dL and 399 mg/dL and 547 mg/dL

A few entries again (series 4):
UAUGUC: 1.03
ACUACC: 0.862
CCUGAA: 0.868
